{"data": "Results of several laboratories", "note": "Parts stem from different laboratories: compare values within a part only.", "UniProt P51955, sequence (whole entry, looked up)": "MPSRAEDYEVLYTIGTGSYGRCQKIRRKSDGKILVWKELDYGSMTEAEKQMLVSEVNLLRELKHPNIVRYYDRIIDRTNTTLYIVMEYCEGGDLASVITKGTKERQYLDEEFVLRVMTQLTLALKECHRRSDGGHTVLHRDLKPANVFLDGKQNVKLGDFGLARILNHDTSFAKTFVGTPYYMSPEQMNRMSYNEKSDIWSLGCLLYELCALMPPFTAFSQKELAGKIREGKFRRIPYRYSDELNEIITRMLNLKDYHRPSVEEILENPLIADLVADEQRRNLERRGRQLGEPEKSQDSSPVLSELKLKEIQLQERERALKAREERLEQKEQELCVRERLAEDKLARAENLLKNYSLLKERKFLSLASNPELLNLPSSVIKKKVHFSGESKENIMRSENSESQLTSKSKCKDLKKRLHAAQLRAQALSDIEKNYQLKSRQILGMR", "UniProt Q13233, sequence (whole entry, looked up)": "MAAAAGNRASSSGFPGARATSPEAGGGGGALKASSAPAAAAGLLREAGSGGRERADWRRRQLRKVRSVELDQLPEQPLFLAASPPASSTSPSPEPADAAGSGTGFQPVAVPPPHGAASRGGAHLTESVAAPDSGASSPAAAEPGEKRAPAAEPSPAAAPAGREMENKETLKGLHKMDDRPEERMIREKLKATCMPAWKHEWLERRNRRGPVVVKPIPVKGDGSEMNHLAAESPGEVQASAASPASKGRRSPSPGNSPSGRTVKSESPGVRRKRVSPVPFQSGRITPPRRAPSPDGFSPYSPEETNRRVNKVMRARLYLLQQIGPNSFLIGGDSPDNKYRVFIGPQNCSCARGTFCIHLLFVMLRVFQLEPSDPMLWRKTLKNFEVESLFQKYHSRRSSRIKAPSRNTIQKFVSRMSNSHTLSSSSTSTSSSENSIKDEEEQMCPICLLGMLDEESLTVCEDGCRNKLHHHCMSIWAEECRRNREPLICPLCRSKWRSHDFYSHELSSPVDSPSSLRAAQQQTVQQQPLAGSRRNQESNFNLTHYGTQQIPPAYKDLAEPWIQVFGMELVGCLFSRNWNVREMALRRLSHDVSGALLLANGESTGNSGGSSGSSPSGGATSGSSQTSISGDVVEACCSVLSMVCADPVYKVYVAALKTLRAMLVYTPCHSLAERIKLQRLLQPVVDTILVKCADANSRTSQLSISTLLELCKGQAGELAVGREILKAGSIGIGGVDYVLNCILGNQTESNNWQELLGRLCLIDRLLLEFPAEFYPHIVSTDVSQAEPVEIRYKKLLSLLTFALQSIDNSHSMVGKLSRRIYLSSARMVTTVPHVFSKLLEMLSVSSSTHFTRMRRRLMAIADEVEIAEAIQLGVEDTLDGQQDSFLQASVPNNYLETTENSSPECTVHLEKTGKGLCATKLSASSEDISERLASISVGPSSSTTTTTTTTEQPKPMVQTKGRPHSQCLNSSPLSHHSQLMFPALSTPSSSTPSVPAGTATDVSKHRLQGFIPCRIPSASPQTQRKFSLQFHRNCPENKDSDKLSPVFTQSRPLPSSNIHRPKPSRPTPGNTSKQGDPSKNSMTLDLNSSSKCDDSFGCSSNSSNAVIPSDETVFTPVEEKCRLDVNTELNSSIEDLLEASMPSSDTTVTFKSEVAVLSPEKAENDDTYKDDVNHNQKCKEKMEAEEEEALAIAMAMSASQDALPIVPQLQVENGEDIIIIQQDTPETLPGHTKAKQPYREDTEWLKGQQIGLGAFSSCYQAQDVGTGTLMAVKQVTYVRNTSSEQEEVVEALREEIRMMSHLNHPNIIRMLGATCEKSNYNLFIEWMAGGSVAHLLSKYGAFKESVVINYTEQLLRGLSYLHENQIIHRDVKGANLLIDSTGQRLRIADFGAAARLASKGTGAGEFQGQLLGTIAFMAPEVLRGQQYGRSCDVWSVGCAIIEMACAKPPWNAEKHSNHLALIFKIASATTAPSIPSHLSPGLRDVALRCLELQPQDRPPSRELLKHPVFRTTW", "UniProt Q86UX6, sequence (whole entry, looked up)": "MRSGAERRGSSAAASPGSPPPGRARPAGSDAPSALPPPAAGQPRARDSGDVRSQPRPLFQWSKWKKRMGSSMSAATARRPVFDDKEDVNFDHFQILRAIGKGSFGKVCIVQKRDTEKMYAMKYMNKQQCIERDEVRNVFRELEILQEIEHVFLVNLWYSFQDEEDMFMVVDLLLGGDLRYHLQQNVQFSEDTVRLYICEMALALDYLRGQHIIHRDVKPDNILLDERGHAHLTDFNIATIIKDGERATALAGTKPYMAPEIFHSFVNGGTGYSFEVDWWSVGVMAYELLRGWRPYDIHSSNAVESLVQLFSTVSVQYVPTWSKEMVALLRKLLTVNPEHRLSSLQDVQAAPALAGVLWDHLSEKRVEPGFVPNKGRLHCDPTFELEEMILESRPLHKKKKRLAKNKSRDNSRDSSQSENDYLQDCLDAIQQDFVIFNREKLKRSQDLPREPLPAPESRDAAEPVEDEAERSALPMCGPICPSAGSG", "UniProt P10721, sequence (whole entry, looked up)": "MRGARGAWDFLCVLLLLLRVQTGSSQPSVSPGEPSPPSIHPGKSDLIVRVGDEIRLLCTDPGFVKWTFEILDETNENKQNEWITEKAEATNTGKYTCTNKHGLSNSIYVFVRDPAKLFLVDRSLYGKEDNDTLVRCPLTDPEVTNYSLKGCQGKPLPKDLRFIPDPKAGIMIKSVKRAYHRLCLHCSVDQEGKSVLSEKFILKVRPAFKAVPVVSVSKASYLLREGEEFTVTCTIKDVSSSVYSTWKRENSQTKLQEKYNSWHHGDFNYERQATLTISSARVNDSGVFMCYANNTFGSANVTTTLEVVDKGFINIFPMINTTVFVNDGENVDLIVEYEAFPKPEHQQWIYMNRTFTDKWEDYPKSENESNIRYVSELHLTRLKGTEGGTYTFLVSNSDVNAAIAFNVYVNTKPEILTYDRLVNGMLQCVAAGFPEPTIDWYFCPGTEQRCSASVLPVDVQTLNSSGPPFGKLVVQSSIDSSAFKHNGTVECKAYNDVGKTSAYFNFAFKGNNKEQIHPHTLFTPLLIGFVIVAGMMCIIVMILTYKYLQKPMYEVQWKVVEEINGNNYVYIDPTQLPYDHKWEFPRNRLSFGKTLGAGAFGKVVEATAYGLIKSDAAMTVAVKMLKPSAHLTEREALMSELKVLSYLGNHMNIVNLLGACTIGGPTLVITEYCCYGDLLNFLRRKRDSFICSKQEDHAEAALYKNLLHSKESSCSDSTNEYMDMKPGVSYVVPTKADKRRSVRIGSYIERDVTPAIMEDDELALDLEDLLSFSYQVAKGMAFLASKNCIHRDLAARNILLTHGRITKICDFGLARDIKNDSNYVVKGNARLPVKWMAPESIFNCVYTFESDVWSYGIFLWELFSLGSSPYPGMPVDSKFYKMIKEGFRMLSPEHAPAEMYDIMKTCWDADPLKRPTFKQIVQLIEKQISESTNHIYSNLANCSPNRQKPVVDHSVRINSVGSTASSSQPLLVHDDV", "UniProt Q8WTQ7, sequence (whole entry, looked up)": "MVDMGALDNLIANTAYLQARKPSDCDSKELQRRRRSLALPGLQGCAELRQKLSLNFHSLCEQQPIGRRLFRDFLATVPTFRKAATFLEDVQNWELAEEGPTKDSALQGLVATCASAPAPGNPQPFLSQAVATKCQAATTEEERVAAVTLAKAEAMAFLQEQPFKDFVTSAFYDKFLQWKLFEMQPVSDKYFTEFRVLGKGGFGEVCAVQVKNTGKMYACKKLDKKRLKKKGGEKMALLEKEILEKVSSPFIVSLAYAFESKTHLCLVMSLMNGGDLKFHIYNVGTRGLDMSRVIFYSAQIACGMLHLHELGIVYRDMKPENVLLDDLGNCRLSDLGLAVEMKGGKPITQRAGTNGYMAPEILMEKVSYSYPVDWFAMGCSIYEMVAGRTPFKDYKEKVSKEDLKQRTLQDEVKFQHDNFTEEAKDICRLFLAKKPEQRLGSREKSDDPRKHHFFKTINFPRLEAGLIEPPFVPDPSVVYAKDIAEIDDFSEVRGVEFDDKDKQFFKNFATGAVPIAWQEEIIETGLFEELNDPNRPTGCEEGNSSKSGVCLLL"}
{"data": "Series 1", "SMILES": "Cc1sc(C(=O)NC2COC2)cc1-n1cc(NC(=O)Nc2c(F)cccc2Cl)cn1", "concentration": "10 µM"}
{"target": "Protein kinase C beta type, isoform beta-I (PRKCB, Homo sapiens, UniProt P05771)", "read-out": "enzyme activity", "relative to": "untreated control", "remaining activity [%]": 105}
{"target": "NTRK2 (Homo sapiens, UniProt Q16620)", "read-out": "enzyme activity", "relative to": "untreated control", "remaining activity [%]": 83}
{"target": "MAP3K21 (Homo sapiens, UniProt Q5TCX8)", "read-out": "enzyme activity", "relative to": "untreated control", "remaining activity [%]": 83.9}
{"target": "TTBK2 (Homo sapiens, UniProt Q6IQ55)", "read-out": "enzyme activity", "mode": "inhibitor", "remaining activity [%]": 97.6}
{"target": "RPS6KA4 (Homo sapiens, UniProt O75676)", "read-out": "enzyme activity", "relative to": "untreated control", "remaining activity [%]": 104}
{"target": "BMPR1A (Homo sapiens, UniProt P36894)", "read-out": "enzyme activity", "relative to": "untreated control", "remaining activity [%]": 84.9}
{"target": "NEK2 (Homo sapiens, UniProt P51955)", "read-out": "enzyme activity", "relative to": "untreated control", "remaining activity [%]": 84.4}
{"target": "DYRK1A (Homo sapiens, UniProt Q13627)", "read-out": "enzyme activity", "relative to": "untreated control", "remaining activity [%]": 94.3}
{"target": "TAOK2 (Homo sapiens, UniProt Q9UL54)", "read-out": "kinase activity", "technique": "kinase panel profiling", "remaining activity [%]": 93.3}
{"target": "Cyclin-dependent kinase 17, with cyclin Y (CDK17, Homo sapiens, UniProt Q00537)", "read-out": "enzyme activity", "relative to": "untreated control", "remaining activity [%]": 102}
{"target": "LYN (Homo sapiens, UniProt P07948)", "read-out": "enzyme activity", "relative to": "untreated control", "remaining activity [%]": 103}
{"data": "Series 2", "Compound": "CO[C@@H](C)c1c(Nc2ccc([C@@H](N(C)C(=O)C3CCS(=O)(=O)CC3)C(F)(F)F)cc2)cnc2cc(Cl)nn12", "technique": "competition with immobilised ligand", "concentration": "1 µM"}
{"target": "RIPK2 (Homo sapiens, UniProt O43353)", "read-out": "cell-free assay", "remaining binding [%]": 83}
{"target": "EGFR (Homo sapiens, UniProt P00533)", "read-out": "cell-free assay", "remaining binding [%]": 95}
{"target": "MAP3K1 (Homo sapiens, UniProt Q13233)", "read-out": "cell-free assay", "remaining binding [%]": 96}
{"target": "GRK7 (Homo sapiens, UniProt Q8WTQ7)", "read-out": "cell-free assay", "remaining binding [%]": 100}
{"target": "CSK (Homo sapiens, UniProt P41240)", "read-out": "cell-free assay", "remaining binding [%]": 100}
{"target": "IRAK4 (Homo sapiens, UniProt Q9NWZ3)", "read-out": "cell-free assay", "remaining binding [%]": 89}
{"target": "Mast/stem cell growth factor receptor Kit, autoinhibited (KIT, Homo sapiens, UniProt P10721)", "read-out": "cell-free assay", "remaining binding [%]": 85}
{"target": "STK32C (Homo sapiens, UniProt Q86UX6)", "read-out": "cell-free assay", "remaining binding [%]": 82}
{"target": "PAK3 (Homo sapiens, UniProt O75914)", "read-out": "cell-free assay", "remaining binding [%]": 100}
{"target": "Tyrosine-protein kinase ABL1, non-phosphorylated (ABL1, Homo sapiens, UniProt P00519, Q252H)", "read-out": "cell-free assay", "remaining binding [%]": 100}
{"target": "SRMS (Homo sapiens, UniProt Q9H3Y6)", "read-out": "cell-free assay", "remaining binding [%]": 100}
{"target": "INSRR (Homo sapiens, UniProt P14616)", "read-out": "cell-free assay", "remaining binding [%]": 89}
{"target": "TXK (Homo sapiens, UniProt P42681)", "read-out": "binding", "remaining binding [%]": 84}
{"target": "PIM1 (Homo sapiens, UniProt P11309)", "read-out": "cell-free assay", "remaining binding [%]": 100}
{"target": "TLK1 (Homo sapiens, UniProt Q9UKI8)", "read-out": "cell-free assay", "remaining binding [%]": 100}
{"data": "Series 3", "target": "Calcium/calmodulin-dependent protein kinase type II subunit alpha (CAMK2A, Homo sapiens, UniProt Q9UQM7)", "read-out": "enzyme activity", "mode": "inhibitor", "concentration": "10 µM", "UniProt Q9UQM7, sequence (whole entry, looked up)": "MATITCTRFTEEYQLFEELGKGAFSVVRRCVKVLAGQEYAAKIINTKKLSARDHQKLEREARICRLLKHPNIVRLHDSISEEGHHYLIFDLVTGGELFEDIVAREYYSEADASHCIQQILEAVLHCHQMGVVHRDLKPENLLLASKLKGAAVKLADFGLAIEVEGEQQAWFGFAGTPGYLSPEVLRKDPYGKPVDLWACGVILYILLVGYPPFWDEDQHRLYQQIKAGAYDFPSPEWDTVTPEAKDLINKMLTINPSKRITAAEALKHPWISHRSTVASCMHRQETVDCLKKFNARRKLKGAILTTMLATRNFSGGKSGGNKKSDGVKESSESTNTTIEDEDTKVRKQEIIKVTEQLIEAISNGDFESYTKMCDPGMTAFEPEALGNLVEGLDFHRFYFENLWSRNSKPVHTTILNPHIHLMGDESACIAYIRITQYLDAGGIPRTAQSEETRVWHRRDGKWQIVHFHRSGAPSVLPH"}
{"Compound": "COc1ccc(-c2oc3c(CC=C(C)C)c(O[C@@H]4O[C@H](CO)[C@@H](O)[C@H](O)[C@H]4O)cc(O)c3c(=O)c2O[C@@H]2O[C@@H](C)[C@H](O)[C@@H](O)[C@H]2O)cc1", "inhibition [%]": 31}
{"Compound": "O=C(/C=C/c1ccc(O)cc1)c1ccc(O[C@@H]2O[C@H](CO)[C@@H](O)[C@H](O)[C@H]2O)cc1O", "inhibition [%]": 19}
{"Compound": "C[C@H](CC[C@@H](O[C@@H]1O[C@H](CO[C@@H]2O[C@H](CO)[C@@H](O)[C@H](O)[C@H]2O)[C@@H](O)[C@H](O)[C@H]1O[C@@H]1O[C@H](CO)[C@@H](O)[C@H](O)[C@H]1O)C(C)(C)O)[C@H]1CC[C@@]2(C)[C@@H]3CC=C4[C@@H](CC[C@H](O[C@@H]5O[C@H](CO)[C@@H](O[C@@H]6O[C@H](CO)[C@@H](O)[C@H](O)[C@H]6O)[C@H](O)[C@H]5O)C4(C)C)[C@]3(C)[C@H](O)C[C@]12C", "inhibition [%]": 15}
{"Compound": "CC(=O)O[C@H]1C[C@@H]2CC[C@@H]3[C@H](CC[C@@]4(C)[C@H]3C[C@H]([N+]3(C)CCCCC3)[C@@H]4OC(C)=O)[C@@]2(C)C[C@@H]1[N+]1(C)CCCCC1", "inhibition [%]": -2}
{"Compound": "N[C@@H](CCS)C(=O)O", "inhibition [%]": -1}
{"Compound": "COc1ccc(/C=C/C(=O)CC(=O)/C=C/c2ccc(OC)c(OC)c2)cc1", "inhibition [%]": -6}
{"Compound": "O=c1[nH]cnc2c1ncn2[C@@H]1O[C@H](COP(=O)(O)OP(=O)(O)OP(=O)(O)O)[C@@H](O)[C@H]1O", "inhibition [%]": -14}
{"Compound": "O=c1[nH]cnc2nc[nH]c12", "inhibition [%]": 50}
{"Compound": "O=C(O)CNC(=O)c1ncc(-c2cccc(Cl)c2)cc1O", "inhibition [%]": -12}
{"Compound": "Nc1ncnc2c1ncn2[C@@H]1O[C@H](CO)C[C@H]1O", "inhibition [%]": -20}
{"Compound": "COc1ccc(CCO[C@@H]2O[C@H](CO[C@@H]3O[C@H](CO)[C@H](O)[C@H](O)[C@H]3O)[C@@H](OC(=O)/C=C/c3ccc(O)c(OC)c3)[C@H](O[C@@H]3O[C@@H](C)[C@H](O)[C@@H](O)[C@H]3O)[C@H]2O)cc1O", "inhibition [%]": -6}
{"Compound": "CCCC/C=C\\CCCCCCCC(=O)O", "inhibition [%]": -116}
{"Compound": "Cc1ccccc1N1CCN(CCc2nnc3n2CCCC3)CC1", "inhibition [%]": -11}
{"Compound": "C[C@@H]1O[C@@H](O[C@H]2[C@H](O[C@H]3CC[C@@]4(C)[C@@H](CC[C@]5(C)[C@@H]4CC=C4[C@@H]6CC(C)(C)CC[C@]6(C(=O)O[C@@H]6O[C@H](CO[C@@H]7O[C@H](CO)[C@@H](O)[C@H](O)[C@H]7O)[C@@H](O)[C@H](O)[C@H]6O)CC[C@]45C)[C@]3(C)CO)OC[C@H](O)[C@@H]2O)[C@H](O)[C@H](O[C@@H]2O[C@H](CO)[C@@H](O[C@@H]3O[C@H](CO)[C@@H](O)[C@H](O)[C@H]3O)[C@H](O)[C@H]2O)[C@H]1O", "inhibition [%]": -19}
{"Compound": "Nc1ncnc2c1ncn2[C@H]1C[C@H](O)[C@@H](COP(=O)(O)OP(=O)(O)OP(=O)(O)O)O1", "inhibition [%]": -48}
{"Compound": "CC1Cc2ccccc2N1NC(=O)c1ccc(Cl)c(S(N)(=O)=O)c1 (stereo not shown)", "inhibition [%]": -2}
{"Compound": "CC[C@H](C)[C@H](N)C(=O)N[C@@H](C)C(=O)N[C@@H](CCCN=C(N)N)C(=O)N[C@@H](CCCN=C(N)N)C(=O)N[C@@H](Cc1cnc[nH]1)C(=O)N1CCC[C@H]1C(=O)N[C@@H](Cc1ccc(O)cc1)C(=O)N[C@@H](Cc1ccccc1)C(=O)N[C@@H](CC(C)C)C(=O)O", "inhibition [%]": 8}
{"Compound": "CC(C)=CCC[C@@H](C)CCO", "inhibition [%]": -21}
{"Compound": "CC(C)OC(=O)CCC/C=C\\C[C@@H]1[C@@H](CC[C@@H](O)CCc2ccccc2)[C@H](O)C[C@@H]1O", "inhibition [%]": 7}
{"data": "Series 4", "target": "Cyclin-dependent kinase 6, with cyclin D1 (CDK6, Homo sapiens, UniProt Q00534)", "read-out": "enzyme activity", "mode": "inhibitor", "concentration": "0.5 µM", "relative to": "control", "UniProt Q00534, sequence (whole entry, looked up)": "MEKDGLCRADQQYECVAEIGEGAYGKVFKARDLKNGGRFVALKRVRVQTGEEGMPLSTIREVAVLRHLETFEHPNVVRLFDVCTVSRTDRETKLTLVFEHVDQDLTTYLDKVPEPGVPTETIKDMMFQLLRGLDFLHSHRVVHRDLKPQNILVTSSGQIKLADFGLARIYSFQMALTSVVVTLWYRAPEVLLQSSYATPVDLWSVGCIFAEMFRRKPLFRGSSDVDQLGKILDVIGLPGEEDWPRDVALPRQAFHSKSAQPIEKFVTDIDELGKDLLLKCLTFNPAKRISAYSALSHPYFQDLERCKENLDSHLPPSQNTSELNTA"}
{"Compound": "CC#CC(=O)Nc1cc2c(Nc3ccc(F)c(Cl)c3)ncnc2cn1", "remaining activity [%]": 99}
{"Compound": "O=C1NC(=O)C(c2c[nH]c3ccccc23)=C1c1c[nH]c2ccccc12", "remaining activity [%]": 88.7}
{"Compound": "O=C1Cc2c([nH]c3ccc([N+](=O)[O-])cc23)-c2ccccc2N1", "remaining activity [%]": 16.8}
{"Compound": "NC(=O)c1ccc(N(C(N)=O)c2c(F)cccc2F)nc1-c1ccc(F)cc1F", "remaining activity [%]": 95.1}
{"Compound": "O=S(=O)(NCCNC/C=C/c1ccc(Br)cc1)c1cccc2cnccc12", "remaining activity [%]": 77.9}
{"Compound": "CCCC(=O)Oc1ccc2[nH]c(C(=O)c3cc4ccccc4[nH]3)cc2c1", "remaining activity [%]": 92.7}
{"Compound": "Oc1ccc(Nc2nc(-c3ccc(Cl)cc3)cs2)cc1", "remaining activity [%]": 101}
{"Compound": "COc1ccc(S(=O)(=O)N(CCO)c2ccccc2CN(C)CC=Cc2ccc(Cl)cc2)cc1", "remaining activity [%]": 92.7}
{"Compound": "Nc1nc(Nc2ccc(S(N)(=O)=O)cc2)nn1C(=O)c1c(F)cccc1F", "remaining activity [%]": 17.1}
{"Compound": "CC[n+]1c(/C=C/N(C)c2ccccc2)n(-c2ccccc2)c2ccc(-c3nc4ccccc4s3)cc21", "remaining activity [%]": 103}
{"Compound": "Cc1cc(Nc2nc(-c3ccccc3)nc3ccccc23)n[nH]1", "remaining activity [%]": 85.5}
{"Compound": "CSc1nc(-c2ccnc(N[C@@H](C)c3ccccc3)c2)c(-c2ccc(F)cc2)[nH]1 (racemic)", "remaining activity [%]": 90.9}
{"Compound": "N#CC(=C(N)Sc1ccc(N)cc1)c1ccccc1C(F)(F)F", "remaining activity [%]": 98}
{"Compound": "CCc1[nH]c(-c2ccc(OC)cc2)nc1-c1ccncc1", "remaining activity [%]": 101}
{"Compound": "CC(C)(C)n1nc(Cc2cccc3ccccc23)c2c(N)ncnc21", "remaining activity [%]": 98.6}
{"Compound": "COc1cc(Nc2c(C#N)cnc3cc(OCCCN4CCN(C)CC4)c(OC)cc23)c(Cl)cc1Cl", "remaining activity [%]": 99.4}
{"Compound": "Nc1nccc(-c2c(-c3ccc(F)cc3)ncn2C2CCNCC2)n1", "remaining activity [%]": 101}
{"Compound": "Fc1ccc(-c2nc3n(c2-c2ccncc2)CCS3)cc1", "remaining activity [%]": 97}
{"Compound": "CC(=O)c1ccc(N2CCOCC2)cc1O", "remaining activity [%]": 99.3}
{"Compound": "Cc1cncc2cccc(S(=O)(=O)N3CCCN(C(=O)CN)C[C@@H]3C)c12", "remaining activity [%]": 99.8}
{"Compound": "Cc1ccc(NC2=CC(=O)c3sc(C)nc3C2=O)cc1", "remaining activity [%]": 101}
{"Compound": "Nc1ncnc2c1cnn2-c1ccccc1", "remaining activity [%]": 94.7}
